{"data": "Assay results from different studies", "note": "Each numbered part is a random draw from the data of one study; scales do not carry over between parts. Changes are numbered by the printed parent chain."}
{"data": "Sample 1", "target": "Interferon regulatory factor 7, full length, phosphomimetic (IRF7, Homo sapiens, UniProt Q92985, residues 1-503, S471D/S472D/S475D/S476D/S477D/S483D/S484D/S487D)", "method": "protein-binding microarray", "form": "double-stranded DNA, one strand shown", "medium": "in vitro", "concentration": "2200 nM top", "notes": "60-bp whole probe", "with": "salmon DNA 0.4 mg/ml", "reference": "random background probes", "direction": "higher = stronger binding", "all sequences stand within": "GCCTAGCAC … GTCTTGATTCGCTTGACGCTGCTG", "Target sequence (chain)": "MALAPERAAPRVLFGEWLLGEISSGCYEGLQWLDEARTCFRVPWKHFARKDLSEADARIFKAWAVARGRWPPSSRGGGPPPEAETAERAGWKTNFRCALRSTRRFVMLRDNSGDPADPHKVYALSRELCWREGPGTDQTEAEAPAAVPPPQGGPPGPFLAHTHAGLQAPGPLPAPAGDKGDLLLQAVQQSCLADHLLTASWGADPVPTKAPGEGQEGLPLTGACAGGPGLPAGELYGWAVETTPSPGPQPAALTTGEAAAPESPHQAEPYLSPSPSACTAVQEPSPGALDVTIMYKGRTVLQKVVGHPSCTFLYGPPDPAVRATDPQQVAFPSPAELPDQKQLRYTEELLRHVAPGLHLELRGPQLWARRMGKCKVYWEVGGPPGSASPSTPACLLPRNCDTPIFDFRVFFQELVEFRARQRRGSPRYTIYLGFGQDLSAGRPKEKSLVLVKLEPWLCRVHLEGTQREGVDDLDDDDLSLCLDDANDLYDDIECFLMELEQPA"}
{"Oligonucleotide": "TTAGGACTCGGGTTTCGGTTAGTGCTA", "fitted relative affinity": "3.71 z-score"}
{"Oligonucleotide": "GACGGACTGCTTTTCCTGAAGTGCTAG", "fitted relative affinity": "0.455 z-score"}
{"Oligonucleotide": "GACGGCCTGCTTATCCTGACGTGCTAG", "fitted relative affinity": "0.399 z-score"}
{"Oligonucleotide": "TTAGGCTTCCTTATCCTTTAGTGCTAG", "fitted relative affinity": "0.787 z-score"}
{"Oligonucleotide": "GTCGATTTCAGTTTCGAGACGTGCTAG", "fitted relative affinity": "6.05 z-score"}
{"Oligonucleotide": "GACGGTATCTGGTTTCGGGACGTGCTA", "fitted relative affinity": "2.94 z-score"}
{"Oligonucleotide": "GACGGTCTCCTTTACCTGACGTGCTAG", "fitted relative affinity": "1.05 z-score"}
{"Oligonucleotide": "GACGGATTGGGGACTGGGGACGTGCTA", "fitted relative affinity": "-0.0526 z-score"}
{"Oligonucleotide": "AGTATTACCTCATCTTTCCCTGTGCTA", "fitted relative affinity": "2.04 z-score"}
{"Oligonucleotide": "TTAGGTCTCGGCATCGGTTAGTGCTAG", "fitted relative affinity": "0.00162 z-score"}
{"Oligonucleotide": "GACGGACTGGGTCTCGGAACGTGCTAG", "fitted relative affinity": "-0.71 z-score"}
{"Oligonucleotide": "TCATGGTCCTCTCTCTAACTGTGCTAG", "fitted relative affinity": "1.04 z-score"}
{"Oligonucleotide": "GACGGTTTTGGTATCGGGACGTGCTAG", "fitted relative affinity": "1.61 z-score"}
{"Oligonucleotide": "TTAGGACTGCTACTGGTTTAGTGCTAG", "fitted relative affinity": "0.144 z-score"}
{"data": "Sample 2", "target": "CCNB1, cyclin fold, Cln2 fusion (human)", "method": "yeast growth competition, sequencing", "medium": "yeast", "notes": "weak parent motif", "reference": "not given", "direction": "higher = stronger binding", "starting sequence": "SCAPER docking peptide (human); SNARRSLNFGGST"}
{"Change": "SNALRSLNFGGST [R4L]", "normalised enrichment score": -0.227}
{"Change": "SNARRSLNFGGVT [S12V]", "normalised enrichment score": 0.18}
{"Change": "SNARRSPNFGGST [L7P]", "normalised enrichment score": 0.266}
{"Change": "SNARRSLNFGGSR [T13R]", "normalised enrichment score": 0.847}
{"Change": "SNARRSLNFGGSW [T13W]", "normalised enrichment score": 0.666}
{"Change": "SNARRSLNFGKST [G11K]", "normalised enrichment score": 1.31}
{"data": "Sample 3", "target": "Histone acetyltransferase KAT6A, both winged helices, GST fusion (KAT6A, Homo sapiens, UniProt Q92794, residues 1-181)", "method": "protein binding microarray", "form": "double-stranded DNA, one strand shown", "medium": "in vitro", "concentration": "not given", "notes": "8-mer, flanks averaged, mean of 2 arrays, mostly near background", "reference": "not given", "direction": "higher = stronger binding", "Residues (chain)": "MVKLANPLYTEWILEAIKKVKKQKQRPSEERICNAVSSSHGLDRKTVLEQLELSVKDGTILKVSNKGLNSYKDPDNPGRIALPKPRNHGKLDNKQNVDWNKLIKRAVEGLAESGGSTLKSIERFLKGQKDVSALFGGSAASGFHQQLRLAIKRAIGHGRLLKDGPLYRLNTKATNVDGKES"}
{"Oligonucleotide": "ACGCGGGG", "E-score": 0.181}
{"Oligonucleotide": "CCGCAGAC", "E-score": 0.165}
{"Oligonucleotide": "CATAGTAC", "E-score": 0.0104}
{"Oligonucleotide": "CGTCCGAC", "E-score": 0.244}
{"Oligonucleotide": "CCAGCGAA", "E-score": -0.125}
{"Oligonucleotide": "ATAAGAGG", "E-score": -0.159}
{"Oligonucleotide": "ACGCGTAG", "E-score": 0.273}
{"Oligonucleotide": "ACCTAGCC", "E-score": -0.203}
{"Oligonucleotide": "ACAACACG", "E-score": 0.0819}
{"Oligonucleotide": "ACCAGTTA", "E-score": -0.232}
{"Oligonucleotide": "ACTATGCG", "E-score": 0.239}
{"Oligonucleotide": "CCTCCACA", "E-score": -0.228}
{"Oligonucleotide": "CTCCTCAA", "E-score": -0.0938}
{"Oligonucleotide": "GGGTGAGA", "E-score": -0.105}
{"Oligonucleotide": "AGCAAGGC", "E-score": -0.0214}
{"data": "Further values, each from its own experiment"}
{"Substance": "PhoQ, residues 284 288 289 292 302 303 SLKLQV", "target": "PhoP, residues 12 14 15 18 19 NHTVL (Escherichia coli, UniProt P23836)", "test": "Sort-seq, item: YFP reporter", "system": "E. coli", "setting": "PhoQ-PhoP variant library, with: 10 µM Mg2+", "how to read": "reference: high Mg2+ state, higher = stronger signaling", "measurement": "fold induction", "result": 10.8}
{"note": "Repeated from above (sample 2):"}
{"Change": "SNARRSLNFGGVT [S12V]", "normalised enrichment score": 0.18}
{"Change": "SNARRSPNFGGST [L7P]", "normalised enrichment score": 0.266}
{"Change": "SNARRSLNFGGSR [T13R]", "normalised enrichment score": 0.847}
